Results collected from several papers.
Protocols differ between the studies behind these lines. Changes are numbered by the printed parent chain. ± gives the spread as reported.
Ovol1: Ovol1 (Mus musculus, UniProt Q9WTJ2)
Sequence of UniProt Q9WTJ2 (whole entry, looked up): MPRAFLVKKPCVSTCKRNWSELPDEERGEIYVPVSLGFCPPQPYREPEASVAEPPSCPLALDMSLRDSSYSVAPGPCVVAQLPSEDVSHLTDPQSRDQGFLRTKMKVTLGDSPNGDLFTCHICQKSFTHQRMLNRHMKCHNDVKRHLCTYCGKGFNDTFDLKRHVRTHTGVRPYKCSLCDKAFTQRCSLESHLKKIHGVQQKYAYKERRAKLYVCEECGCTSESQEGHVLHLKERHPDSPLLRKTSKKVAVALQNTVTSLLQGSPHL
RIGI: RIGI 2-925 (Homo sapiens, UniProt O95786)
Sequence of UniProt O95786 (whole entry, looked up): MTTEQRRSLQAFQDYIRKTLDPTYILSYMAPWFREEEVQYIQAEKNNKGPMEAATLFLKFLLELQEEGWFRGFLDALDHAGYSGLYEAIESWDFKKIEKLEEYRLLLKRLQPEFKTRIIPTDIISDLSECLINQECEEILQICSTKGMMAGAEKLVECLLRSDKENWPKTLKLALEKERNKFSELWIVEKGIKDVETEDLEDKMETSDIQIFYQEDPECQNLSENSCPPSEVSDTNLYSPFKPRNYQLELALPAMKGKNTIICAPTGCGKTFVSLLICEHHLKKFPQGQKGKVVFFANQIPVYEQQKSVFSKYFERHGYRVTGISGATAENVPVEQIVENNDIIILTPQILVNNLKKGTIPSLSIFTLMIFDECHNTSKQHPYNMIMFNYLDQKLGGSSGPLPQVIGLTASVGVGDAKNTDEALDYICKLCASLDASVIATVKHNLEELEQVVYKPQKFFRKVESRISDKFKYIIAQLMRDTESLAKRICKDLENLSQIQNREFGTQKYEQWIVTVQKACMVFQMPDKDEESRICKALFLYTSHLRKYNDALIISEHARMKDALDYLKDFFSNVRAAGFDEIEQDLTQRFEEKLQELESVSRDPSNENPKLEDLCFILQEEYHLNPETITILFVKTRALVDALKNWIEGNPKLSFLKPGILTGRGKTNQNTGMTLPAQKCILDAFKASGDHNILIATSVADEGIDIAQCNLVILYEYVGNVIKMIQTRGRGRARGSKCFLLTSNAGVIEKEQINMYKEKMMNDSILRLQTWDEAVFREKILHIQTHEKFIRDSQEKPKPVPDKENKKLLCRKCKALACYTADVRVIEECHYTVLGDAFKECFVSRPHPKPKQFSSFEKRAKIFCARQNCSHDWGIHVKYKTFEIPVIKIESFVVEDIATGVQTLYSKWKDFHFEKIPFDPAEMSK
WRKY45-1: WRKY45-1 104-182 (Oryza sativa, UniProt Q5W6D6)
Sequence of UniProt Q5W6D6 (whole entry, looked up): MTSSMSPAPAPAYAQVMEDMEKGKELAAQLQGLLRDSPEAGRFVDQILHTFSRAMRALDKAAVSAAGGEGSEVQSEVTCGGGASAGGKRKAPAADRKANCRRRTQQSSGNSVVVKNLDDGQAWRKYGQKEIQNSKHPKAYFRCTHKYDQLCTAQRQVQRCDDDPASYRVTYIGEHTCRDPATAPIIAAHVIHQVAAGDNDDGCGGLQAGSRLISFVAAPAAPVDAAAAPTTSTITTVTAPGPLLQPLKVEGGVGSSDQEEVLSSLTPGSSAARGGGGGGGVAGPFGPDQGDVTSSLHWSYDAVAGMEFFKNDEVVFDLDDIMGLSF
bin: bin 311-408 (Drosophila melanogaster, UniProt Q9VS05)
Sequence of UniProt Q9VS05 (whole entry, looked up): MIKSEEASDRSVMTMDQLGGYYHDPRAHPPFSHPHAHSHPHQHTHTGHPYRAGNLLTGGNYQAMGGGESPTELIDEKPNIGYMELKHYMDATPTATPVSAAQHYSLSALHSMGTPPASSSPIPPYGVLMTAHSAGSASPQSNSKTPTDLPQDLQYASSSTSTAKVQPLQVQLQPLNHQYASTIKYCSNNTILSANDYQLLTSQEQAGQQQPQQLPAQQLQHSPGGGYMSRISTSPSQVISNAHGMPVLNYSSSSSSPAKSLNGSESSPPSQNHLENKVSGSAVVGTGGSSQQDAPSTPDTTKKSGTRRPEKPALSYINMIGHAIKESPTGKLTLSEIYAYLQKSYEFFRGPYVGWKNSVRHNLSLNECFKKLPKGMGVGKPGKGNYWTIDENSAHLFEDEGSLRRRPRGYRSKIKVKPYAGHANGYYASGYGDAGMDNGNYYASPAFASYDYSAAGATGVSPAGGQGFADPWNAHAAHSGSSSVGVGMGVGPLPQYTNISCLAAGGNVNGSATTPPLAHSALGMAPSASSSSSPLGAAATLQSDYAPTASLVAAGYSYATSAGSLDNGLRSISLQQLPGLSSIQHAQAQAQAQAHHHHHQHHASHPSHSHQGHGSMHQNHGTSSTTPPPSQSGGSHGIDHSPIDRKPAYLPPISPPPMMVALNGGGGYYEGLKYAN
Heat shock factor protein HSF8: Heat shock factor protein HSF8 (Solanum lycopersicum, UniProt Q40152)
Sequence of UniProt Q40152 (whole entry, looked up): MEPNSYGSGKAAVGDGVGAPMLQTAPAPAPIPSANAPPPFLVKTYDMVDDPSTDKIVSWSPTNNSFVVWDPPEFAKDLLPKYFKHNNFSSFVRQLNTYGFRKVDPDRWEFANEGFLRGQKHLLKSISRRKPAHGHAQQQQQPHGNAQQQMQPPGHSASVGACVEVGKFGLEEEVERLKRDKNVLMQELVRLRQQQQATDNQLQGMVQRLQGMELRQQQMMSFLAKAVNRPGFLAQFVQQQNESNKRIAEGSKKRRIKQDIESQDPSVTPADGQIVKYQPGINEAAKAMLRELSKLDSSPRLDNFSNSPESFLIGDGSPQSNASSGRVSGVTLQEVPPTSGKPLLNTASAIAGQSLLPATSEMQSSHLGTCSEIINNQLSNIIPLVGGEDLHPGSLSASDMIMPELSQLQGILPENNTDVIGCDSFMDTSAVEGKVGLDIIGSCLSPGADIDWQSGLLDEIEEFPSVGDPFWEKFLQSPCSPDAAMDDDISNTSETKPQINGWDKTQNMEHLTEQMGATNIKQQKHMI
P1: METTL9 full-length, 1-318 (Homo sapiens); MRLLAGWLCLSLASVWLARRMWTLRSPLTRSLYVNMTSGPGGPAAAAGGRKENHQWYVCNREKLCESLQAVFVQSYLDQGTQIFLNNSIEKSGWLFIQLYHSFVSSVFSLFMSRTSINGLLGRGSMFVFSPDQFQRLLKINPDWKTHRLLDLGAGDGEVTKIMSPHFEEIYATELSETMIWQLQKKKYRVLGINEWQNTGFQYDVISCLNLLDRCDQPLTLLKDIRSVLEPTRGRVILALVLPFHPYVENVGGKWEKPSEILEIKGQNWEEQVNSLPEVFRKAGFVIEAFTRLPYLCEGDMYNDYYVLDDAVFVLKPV
B1: SULT1A1 (Homo sapiens, UniProt P50225); chain MELIQDTSRPPLEYVKGVPLIKYFAEALGPLQSFQARPDDLLISTYPKSGTTWVSQILDMIYQGGDLEKCHRAPIFMRVPFLEFKAPGIPSGMETLKDTPAPRLLKTHLPLALLPQTLLDQKVKVVYVARNAKDVAVSYYHFYHMAKVHPEPGTWDSFLEKFMVGEVSYGSWYQHVQEWWELSRTHPVLYLFYEDMKENPKREIQKILEFVGRSLPEETVDFVVQHTSFKEMKKNPMTNYTTVPQEFMDHSISPFMRKGMAGDWKTTFTVAQNERFDADYAEKMAGCSLSFRSEL
Sequence of UniProt Q980N4 (whole entry, looked up): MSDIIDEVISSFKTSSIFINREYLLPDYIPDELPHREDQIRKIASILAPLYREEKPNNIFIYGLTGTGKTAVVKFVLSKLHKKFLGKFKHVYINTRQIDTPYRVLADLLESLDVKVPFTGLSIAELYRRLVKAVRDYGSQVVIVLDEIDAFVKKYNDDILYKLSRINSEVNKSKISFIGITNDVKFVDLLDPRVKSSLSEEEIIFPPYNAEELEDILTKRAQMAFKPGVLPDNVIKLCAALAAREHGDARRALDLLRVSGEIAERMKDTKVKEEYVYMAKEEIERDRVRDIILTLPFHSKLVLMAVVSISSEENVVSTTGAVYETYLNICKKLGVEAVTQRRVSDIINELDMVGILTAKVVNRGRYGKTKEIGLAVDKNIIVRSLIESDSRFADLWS
Sequence of UniProt Q38874 (whole entry, looked up): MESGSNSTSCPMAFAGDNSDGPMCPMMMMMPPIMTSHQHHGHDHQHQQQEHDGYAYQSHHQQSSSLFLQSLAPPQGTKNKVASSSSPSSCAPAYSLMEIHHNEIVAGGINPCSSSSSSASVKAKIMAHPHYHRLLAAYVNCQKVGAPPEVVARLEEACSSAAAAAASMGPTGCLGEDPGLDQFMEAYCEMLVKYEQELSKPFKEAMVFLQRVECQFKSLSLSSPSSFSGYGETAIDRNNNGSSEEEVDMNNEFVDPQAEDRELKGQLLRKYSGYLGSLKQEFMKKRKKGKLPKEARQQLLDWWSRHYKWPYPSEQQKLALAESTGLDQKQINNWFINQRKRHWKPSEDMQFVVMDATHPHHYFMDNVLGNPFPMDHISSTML
Sequence of UniProt Q9Y5A9 (whole entry, looked up): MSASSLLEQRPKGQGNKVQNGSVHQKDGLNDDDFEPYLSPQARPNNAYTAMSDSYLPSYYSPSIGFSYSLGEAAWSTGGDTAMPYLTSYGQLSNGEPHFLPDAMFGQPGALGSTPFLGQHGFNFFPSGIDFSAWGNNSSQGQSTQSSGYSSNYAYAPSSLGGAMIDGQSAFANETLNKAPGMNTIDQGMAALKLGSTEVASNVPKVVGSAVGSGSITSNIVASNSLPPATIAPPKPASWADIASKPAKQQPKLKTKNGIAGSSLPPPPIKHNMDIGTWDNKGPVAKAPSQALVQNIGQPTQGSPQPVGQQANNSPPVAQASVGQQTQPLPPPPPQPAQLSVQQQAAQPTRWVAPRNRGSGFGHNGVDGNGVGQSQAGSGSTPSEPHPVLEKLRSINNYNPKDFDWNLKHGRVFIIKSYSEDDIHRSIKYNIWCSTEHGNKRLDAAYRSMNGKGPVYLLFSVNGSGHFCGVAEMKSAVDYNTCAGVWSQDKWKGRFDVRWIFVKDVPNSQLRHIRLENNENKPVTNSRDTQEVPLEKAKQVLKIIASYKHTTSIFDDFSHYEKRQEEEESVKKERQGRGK
Sequence of UniProt P35222 (whole entry, looked up): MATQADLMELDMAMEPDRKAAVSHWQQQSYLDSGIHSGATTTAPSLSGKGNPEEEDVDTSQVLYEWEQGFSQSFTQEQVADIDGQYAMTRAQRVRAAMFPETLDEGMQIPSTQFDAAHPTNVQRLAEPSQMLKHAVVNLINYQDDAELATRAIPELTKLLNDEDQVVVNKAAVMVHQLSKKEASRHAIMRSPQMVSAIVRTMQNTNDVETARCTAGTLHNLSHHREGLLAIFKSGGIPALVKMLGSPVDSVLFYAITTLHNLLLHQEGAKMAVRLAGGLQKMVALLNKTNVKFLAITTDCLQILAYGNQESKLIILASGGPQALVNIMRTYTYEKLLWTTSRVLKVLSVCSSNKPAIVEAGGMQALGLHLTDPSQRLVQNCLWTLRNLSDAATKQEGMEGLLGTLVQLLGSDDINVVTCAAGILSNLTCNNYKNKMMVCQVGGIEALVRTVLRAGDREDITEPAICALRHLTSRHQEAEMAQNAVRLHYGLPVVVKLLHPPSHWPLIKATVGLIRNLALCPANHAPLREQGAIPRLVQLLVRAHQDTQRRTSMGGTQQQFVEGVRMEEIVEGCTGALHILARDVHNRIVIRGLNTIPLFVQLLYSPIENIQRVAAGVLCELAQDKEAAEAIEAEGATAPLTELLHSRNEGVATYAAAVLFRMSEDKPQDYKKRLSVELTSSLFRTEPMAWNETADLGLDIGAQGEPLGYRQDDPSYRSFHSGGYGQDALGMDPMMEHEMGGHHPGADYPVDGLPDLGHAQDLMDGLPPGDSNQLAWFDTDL

`ATTGCGTATAATGTGTGGA (ssDNA)`: binding “binds” (rpoD full length assumed I48S (Escherichia coli, UniProt P00579); UV crosslinking; single-stranded DNA; free sigma70 without core).
`GTCGACCAGCTGAGTCGACCAGCTG (ssDNA; N6-methyl-dA)`: binding “binds” (YTHDF2 391-579 (Homo sapiens, UniProt Q9Y5A9); pull-down; single-stranded DNA).
With `P1 M126A` the Kd was 616 µM (SLC39A7 residues 66-74; ITC; with: SAH 2 mM).
For `GGTGGGTTGTCAATGCGCTTTCCCAACGCA (dsDNA)`, binding read “no binding” (Ovol1; EMSA; double-stranded DNA, one strand shown).
`DNA 1 AGCGTGGGAGTGTTA / DNA 2 TAACACTCCCACGC (dsDNA)`: binding “binds” (WT1 ZF1-4, -KTS, 319-437 (Homo sapiens); fluorescence polarization; double-stranded DNA).
The Kd of `RNA 1 GCAUGCGACCUCUGUUUGA / RNA 2 UCAAACAGAGGUCGCAUGC (dsRNA; 5'-triphosphate, duplex, 19 bp)` is reported as 0.0016 ± 0.0009 µM (RIGI; MST; double-stranded RNA; with: ADP-AlFx).
`CTGCCTTCATCAAAGCTTTGAACACAGCGC (dsDNA)`: binding “no binding” (Ovol1; EMSA; double-stranded DNA, one strand shown).
`B1 (SULT1A1)` gave a Vmax/Km of 94000 µL/min/mg (O=C(O[C@@H]1Cc2c(O)cc(O)cc2O[C@@H]1c1cc(O)c(O)c(O)c1)c1cc(O)c(O)c(O)c1; steady-state kinetics; pH 7.4, not purified, with: EGCG 0–0.4 µM).
For `TTTTACTGACGGCG (dsDNA)`, binding read “no binding” (WRKY45-1; EMSA; double-stranded DNA, one strand shown).
Under binding, `TTAATGGTTTGCCGTTGTCGCCA (dsDNA)` is recorded as “no binding” (bin; competition; double-stranded DNA, one strand shown; not purified).
`CAATACAATTGTCTCTGTGTAGTAAATTTCCTACGTTTCATCTGAAAATCTAGCTATTAGAG (dsDNA)` — result for binding: “binds” (cdc6-1 full length assumed (Saccharolobus solfataricus, UniProt Q980N4); EMSA; double-stranded DNA, one strand shown).
The Kd of `P1 T115A` is reported as 34.3 µM (SLC39A7 residues 66-74; ITC; with: SAH 2 mM).
Under binding, `CTATTAAGCTTGACAAGAAG (dsDNA)` is recorded as “no binding” (Heat shock factor protein HSF8; EMSA; double-stranded DNA, one strand shown).
`CAGAATCTTGGAAGCATACAATGTGGAGACAA (ssDNA)`: binding “binds” (ZTA1 1-336 (Komagataella phaffii, UniProt F2QTB9); EMSA; single-stranded DNA).
`TTAATGTTGTTTCGTTTCCGCCA (dsDNA)` — result for binding: “no binding” (bin; competition; double-stranded DNA, one strand shown; not purified).
For `TCCAATTGACAGGC (dsDNA)`, binding read “no binding” (WRKY45-1; EMSA; double-stranded DNA, one strand shown).
`GGGUAACCAUUAUAACCUCCAAUAAACAAGUUAACAACAC (ssRNA)` — result for binding: “binds” (WDR33 full length assumed (Homo sapiens, UniProt Q9C0J8); UV cross-linking; RNA; within CPSF complex).
`GGTGGGTTGTCACCGTTATTTCCCAACGCA (dsDNA)` — result for binding: “binds” (Ovol1; EMSA; double-stranded DNA, one strand shown).
`TTGGTCGCTGCA (dsDNA)` — result for binding: “binds” (zim-2 450-570 (Caenorhabditis elegans, UniProt O18067); ITC; double-stranded DNA, one strand shown).
`TTACTTCACACTTTAATAAA (dsDNA)`: binding “no binding” (bin; competition; double-stranded DNA, one strand shown; not purified).
`TGATAGAATCTTCATCATGTTTCTTACACTTCTCA (dsDNA)` — result for binding: “binds” (Heat shock factor protein HSF8; EMSA; double-stranded DNA, one strand shown).
`RNA 1 GCAUGCGACCUCUGUUUGA / RNA 2 UCAAACAGAGGUCGCAUGC (dsRNA; 5'-OH, duplex, 19 bp)` has a Kd of 0.121 ± 0.05 µM (RIGI; MST; double-stranded RNA; with: AMP-CP 0.4 mM; MgCl2.5 mM).
`TTAATGGTTTGTTGTTGTCGCCA (dsDNA)` — result for binding: “binds” (bin; EMSA; double-stranded DNA, one strand shown; not purified).
`CUAUUAAUUUAAUUAUUUAAUAAUAUUUAUAUUAAACUCC (ssRNA)` — result for binding: “binds” (CTNNB1 full length assumed (Homo sapiens, UniProt P35222); EMSA; RNA).
For `ATTTATTATTGTGACACAAGCTTAGT (dsDNA)`, binding read “binds” (STM full length assumed (Arabidopsis thaliana, UniProt Q38874); EMSA; double-stranded DNA, one strand shown).

For quick reference, copied from above:
For `TTTTACTGACGGCG (dsDNA)`, binding read “no binding” (WRKY45-1; EMSA; double-stranded DNA, one strand shown).
